Published values collected from several papers.
Parts stem from different laboratories: compare values within a part only.

Series 1 — method: RNAcompete; molecule type: RNA; sample: in vitro; concentration: 20 nM; notes: 7-mer, probes averaged, single round; baseline: mean of 7-mers; direction: higher = stronger binding; endpoint: 7-mer Z-score
Target: PABPC1L2, full length, GST fusion (mouse, UniProt A0ABA7IW68)
Residues (chain): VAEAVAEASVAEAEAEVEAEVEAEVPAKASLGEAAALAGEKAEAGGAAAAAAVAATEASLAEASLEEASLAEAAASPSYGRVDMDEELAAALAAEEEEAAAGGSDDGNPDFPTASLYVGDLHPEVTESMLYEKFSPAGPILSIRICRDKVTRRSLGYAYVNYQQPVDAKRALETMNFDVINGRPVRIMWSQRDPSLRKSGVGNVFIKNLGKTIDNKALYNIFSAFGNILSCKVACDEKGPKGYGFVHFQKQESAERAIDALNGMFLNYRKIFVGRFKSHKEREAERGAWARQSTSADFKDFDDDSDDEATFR
AGUAAAG: 0.55
GACGGCC: -0.117
AGCCUAC: -0.351
CCAGCUG: -0.318
UGUGAUA: -0.22
AAACCGC: 0.476
UCGAAUA: 0.0152
UAUACUU: -0.188
ACCUAAA: 0.599
AAAGGCG: 0.707
GCUGUAA: -0.0917
GGUUGGG: 0.106
ACGCCCU: -0.253
GAGCUAU: -0.148
GGCUGGU: 0.0986
ACGAGAA: 0.474
GAGAGGU: -0.0736
AGAACGU: -0.0953
UAUCUUU: -0.119
CAAUCCA: -0.159
AACUCAA: 0.0895
GAGGACG: 0.309
AAACAUC: 1.73
GUCCUUG: -0.269
AAGGUCC: -0.0681

Series 2 — method: protein-binding microarray; molecule type: double-stranded DNA, one strand shown; sample: in vitro; concentration: 2200 nM top; notes: 60-bp whole probe; with: salmon DNA 0.4 mg/ml; baseline: random background probes; direction: higher = stronger binding; endpoint: fitted relative affinity; all sequences stand within: GCCTAGCAC … GTCTTGATTCGCTTGACGCTGCTG
Target: Interferon regulatory factor 7, full length, phosphomimetic (IRF7, Homo sapiens, UniProt Q92985, residues 1-503, S471D/S472D/S475D/S476D/S477D/S483D/S484D/S487D)
Target sequence (chain): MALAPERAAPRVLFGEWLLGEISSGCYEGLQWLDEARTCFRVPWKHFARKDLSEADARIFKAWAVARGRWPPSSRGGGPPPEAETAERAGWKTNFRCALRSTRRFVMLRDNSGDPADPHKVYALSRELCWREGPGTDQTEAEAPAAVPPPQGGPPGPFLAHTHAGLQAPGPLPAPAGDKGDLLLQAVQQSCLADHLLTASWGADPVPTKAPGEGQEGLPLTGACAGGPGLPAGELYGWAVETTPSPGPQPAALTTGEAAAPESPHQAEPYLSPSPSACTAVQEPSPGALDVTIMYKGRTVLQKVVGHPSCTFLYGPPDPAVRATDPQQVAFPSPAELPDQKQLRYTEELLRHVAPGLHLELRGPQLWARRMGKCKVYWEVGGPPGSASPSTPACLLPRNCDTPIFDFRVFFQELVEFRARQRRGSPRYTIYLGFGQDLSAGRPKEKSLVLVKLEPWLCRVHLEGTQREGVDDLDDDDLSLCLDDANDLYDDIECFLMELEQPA
TTAGGTTTCGGGCATCGGTTAGTGCTA: 2.41 z-score
AAAGTTTTTCATTTTTTTTCGTGCTAG: 1.24 z-score
GACGGTATCATTATCCTGACGTGCTAG: 0.61 z-score
AACTTTTTTTTTTCCCTGAAGTGCTAG: 1.65 z-score
TTAGGTATCAGGACTGGGTTAGTGCTA: -0.394 z-score
GACGATTTCGGTTCCGGGACGTGCTAG: 6.55 z-score
TTAGAACTGAGTCCCGATTAGTGCTAG: -0.0452 z-score
TTTTCAGCATCGCTCAGCACGTGCTAG: 0.653 z-score
TCAATTCTCACTGCAGCACTGTGCTAG: 0.868 z-score
TCATGCCTGTTTTTCCCACTGTGCTAG: 1.93 z-score
GACGATTTCAGTATAGAGACGTGCTAG: 0.612 z-score
CTAGGTTTCCTACTGCTTTAGTGCTAG: 1.3 z-score
TTAGGTTTCGGTATCGGTTCGTGCTAG: 8.65 z-score
TTAGGTCTCCTTCTTCTTTAGTGCTAG: 0.911 z-score
TTAGGTTTCGGCTTTCGGTTAGTGCTA: 8.46 z-score
CCCATTCCAGGGTTTTATGGAGTGCTA: -0.0658 z-score
GACGGTCTCCTCCTCCTGACGTGCTAG: 0.684 z-score
GACGGTCTGGACTATCGGGACGTGCTA: -0.583 z-score
GAGAATTTCCACTTTGACTTGTGCTAG: 1.78 z-score
TCACTTTCCACTTGTCTTTTCGTGCTA: 9.98 z-score
ATAGGTCTCCTTTTCCTTTAGTGCTAG: 2.01 z-score
GACGGTTCCGTTTTCGGGACGTGCTAG: 5.01 z-score
TCATATTTGCAACATCCCACTGTGCTA: 1.58 z-score
GTAGATATCAGTTTCGATTAGTGCTAG: 6.06 z-score
TTAGATCTCAGCCTGGATTAGTGCTAG: 0.0147 z-score

Series 3 — method: RNA Bind-n-Seq; molecule type: RNA; sample: in vitro; concentration: not given; baseline: input RNA pool; direction: higher = stronger binding; endpoint: bound/input enrichment
Target: RING finger protein unkempt homolog, zinc fingers 1-6, GST-SBP tag (UNK, Homo sapiens, UniProt Q9C0B0, residues 30-357)
Notes: RNA with constant flanks, human-mouse chimeric sites, ends assumed
All sequences stand within: GGGAGUUCUACAGUCCGACGAUC … CAACAGAGGAUUGAGCAUCA
Target sequence (chain): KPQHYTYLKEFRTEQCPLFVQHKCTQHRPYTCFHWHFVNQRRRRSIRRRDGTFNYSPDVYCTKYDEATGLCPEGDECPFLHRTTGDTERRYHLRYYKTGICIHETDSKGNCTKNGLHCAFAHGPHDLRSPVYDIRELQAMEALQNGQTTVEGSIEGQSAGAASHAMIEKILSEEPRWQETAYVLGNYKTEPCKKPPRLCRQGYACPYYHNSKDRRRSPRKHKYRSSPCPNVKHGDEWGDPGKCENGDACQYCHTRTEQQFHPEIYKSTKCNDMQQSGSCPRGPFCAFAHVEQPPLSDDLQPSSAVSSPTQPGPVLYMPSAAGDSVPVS
UUAAUCCCCUUUACUGCUCCCCCACUUGUCAUGCUGAUAACAAAGUCUUAUAUCCCCGUCCUAGCUUUUACUCAGAUGGCUUAUGGAGCCGGUUUCCUAGCUUUCUUGGGAGGGAUCAGA: 0.642 ratio
GCCACCAGAUCCCAGAAACAUGACCCUUGCUGCCUACAAAGAGAAGAUGAAGGAGCUCCCACUAGUGUCCUUGUUCUGCUCCUGCUUCCUGGCCGAUCCCCUGAAUAAAUCAUCCUACAA: 1.08 ratio
GUAUACGGUUAUCGAGGAAAGGACUGUAGAGCGAAUGUUUACCUUCUUCCGACCGGGGAGAUAGUUUAUUUUAUCGCCUCAGUGGUAGUCCUGUUUAAUUAUGAGGAGAGGACUCAGCGA: 0.323 ratio
GUAGCUGGGACUACAGAAAUGCUGGUAAUUUCAGUCACUUGCUGAUGACUUCUGAUGUCCCAGCAAAUGUUGGCAUUCACUGCAAUAGAGAAGAUACUUCUGAGGACCCACGUCUAAGGU: 0.162 ratio
AUAAAGGCCAUGUUGAGUGGUCCAGGUCAGUUUGCUGAGAACGAAACCAACGAGGUCAAUUUUAGAGAGAUCCCCUCACAUGUGCUAUCAAAAGUGUGCAUGUAUUUUACCUACAAGGUC: 0.133 ratio
UGACAAGGGCACUGCAGAGCCAUGCCUUUCUUGGACAUACAGAAAAAGCUGGGCAUCAGCCUGGACCGGCACUUUAUGUUCCUAAGCGCAGAACAGCCCUACAAGAUCGCCGCUCGGUGC: 0.078 ratio
GAUGAUAAUCACACAAACAAGUCACUGUUACAUGACCAGCCUUGGGAUUCUUCUCCUGAUUAAUAUUCUCCCUGGAACCACUAGCCAAGGGGAAUCAAGACGACAAGAACCCGGGGACUU: 0.165 ratio
AGAGAUAAGACAUCCAGGAACAUGCGAGGGUCACGGAUGAAUGGGUUGCCUAGCCCCACUCACAGCGCCCACUGUAGCUUCUACCGAACCAGAACCUUGCAGGCACUGAGUAAUGAGAAG: 0.224 ratio
ACAGUUAUAUUGUUGAGUUUCAUUUUCUUGUAUGUUUGUAGUGUCUGCUUGCCUGUGACUUCUGGUAAAAUAAAAUAAGCCUUUGAAUUAGCAUGCUCAUGGUAUUUAACAUUUUCUAAA: 0.806 ratio
CGCGUCCUCUCGCUGCUGCGGAGCCCGAGCUGGGAACCAUUCCGGGACUGGUACCCUGCACACAGCCGCCUCUUCGAUCAAGCUUUCGGGGUGCCCCGGUUGCCCGAGGAGUGGUCGCAG: 0.0939 ratio
GAUAAGAAAAGCUUGUUGGAGACCCGCUUGCAUGUCACUGGUAGAGACCUGAGGUGUAAAAUAGCUGAAACUUUCGGAUUUCAAGAAAAUUACAUCAAGAUCGUAAUAAAUAAGAAGCAG: 0.49 ratio

Series 4 — method: RNA Bind-n-Seq; molecule type: RNA; sample: in vitro; concentration: 365 nM; baseline: no-protein control; direction: higher = stronger binding; endpoint: RBNS enrichment (R)
Target: RNA binding protein fox-1 homolog 2, RRM domain, GST-SBP tag (RBFOX2, Homo sapiens, UniProt O43251-10, residues 100-194)
Notes: natural RNA segment, single round, ends assumed
All sequences stand within: GGGAGUUCUACAGUCCGACGAUC … UGGAAUUCUCGGGUGCCAA
Residues (chain): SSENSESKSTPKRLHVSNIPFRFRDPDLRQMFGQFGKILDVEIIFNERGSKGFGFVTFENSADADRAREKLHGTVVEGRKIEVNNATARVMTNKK
CUAGAACAGUGACUAUAAAUGAUGUAUGGGAAUAGUGUUUCCAUAUGAUCUGUUGUCUGGAGUAUAUGCUACAUGUUCAUUUACUGUACAAAAACCCAGUGCAGCUGAUG: 0.343
AAAAAAAAAAAAUUACGUAGGAUUAAUACAGAAAUUUAAUCAUGUCUGAUUAAUUGCUCUAUUAAAAUAAGGGGCAUUUAAAGACCCAGCAUAACCAUUUGUAUAAUGAG: 0.542
UCAUCGGGCUGGGCAGGAAGCGUCCCUGAUUGCGUGCUCCACUUCUCCCUCUCAGGAAGCCCAGUUUCAUCCUUAGUACCCCCCCUCGUGCCCGCUGUCGGCUGGUUAUA: 0.568
GUGGCUUCUGCAACCAGCCCAUCCGACACGAGAUGGUGACCGCCUUGGGCACUCACUGGCACCCAGAGCAUUUCUGCUGCGUCAGUUGCGGGGAGCCCUUCGGAGAUGAG: 0.215
UUAUCUGAGCCAAACCCCUUAGCAGAAGAAACUGUCCAGCCACACCGAGUGCUCGAAUGGUGUAUUUACAAUGUGAUUCUAGUCUCUUCUUCAGGGAACAUGCCUGCAUU: 1.91
UCAUCGAAGAGACCAGCUCUGACACAGACUAAAAGCAUCACCUGCUCAACUCUCAAUAUUGCUUUAUCAGCAUCUUUUCUCUGUAGCUCCAGGGGAAUCUUUUCUCUAAA: 0.33
ACUCAGAAAUUUUAAAUUUGAAAAAGAAAUCGAUUUUCAUCUGUAUGCCGUCAAGGAAGGAAUUCAGUUACAGGGCAUCUGUAACUUAAAUAUUGUAAGAAUAACUCAUA: 0.349
CAUGUGUUACACCCAUCCCGUUUACCAUAUUACCAAAUCCUCACAAGAGGUUUCAAGGAACUGUUUCGCUUGAUCUGCACCCUGCUGCUGUGUUCUGUGCUUUACACUGA: 1.23
ACAUCACCAUGUUCCUUGUUAACAUUUUUCUUUUCGCAGAGAGGAAAAUAUGUUUUUGCUGCUUUAUAUAAAAGUGAUUUUUAAGUUAUUUUAAAGAUCUAGCUUCCCUA: 0.521
CAGGCGAGUGCCAGCAGUGUUACUGCCGCCCCAUGUGGUGCCUCACCUGCAUGGGCAAGUGGUUCGCCAGCCGCCAGGACCCCCUGCGCCCUGACACCUGGCUGGCCAGC: 0.297
ACAUGUAUUAUUUGAUACUAAAUUUUCAAUUAUUACUUCAAAAUAAGAGUCUGAGGAUUUCUUCUUACUGGCGUUCUUAAAGGUCUCUAAAAUUAAAGAACAAGAUGUGG: 0.681
GGUUUCUGCUUCCAUAUAUUUCCCAGUCAUUUUAAUUAGAGAAGAUACUCUAUGGUAGAACUAAGGCCUUUCCUUUCUUGGCCAAAGUCUUUACCCUAUUUAACCCUUUG: 0.852
